Published values from different studies.
Each line is one published result; not all experiments were run side by side. ± marks the error that the study gave.
ALB: Albumin (ALB, Homo sapiens, UniProt P02768)
ABO G235S/G268A/L266M/R176G: Histo-blood group ABO system transferase (ABO, Homo sapiens, UniProt P16442, G235S/G268A/L266M/R176G)
CHRM1: Muscarinic acetylcholine receptor M1 (CHRM1, Homo sapiens, UniProt P11229)
ESR2: Estrogen receptor beta (ESR2, Homo sapiens, UniProt Q92731)
SLC10A2: Ileal sodium/bile acid cotransporter (SLC10A2, Homo sapiens, UniProt Q12908)
T1: DNA aptamer; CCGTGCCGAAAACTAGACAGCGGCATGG
T2: pre-miR-21 RNA (Homo sapiens); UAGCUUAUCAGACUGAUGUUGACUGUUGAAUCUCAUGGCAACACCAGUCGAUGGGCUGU

SMILES | target | test | system | setting | scale | quantity | result
Nc1nc2c(ncn2C2CC(O)C(COP(=O)(O)OCCCNC(=O)c3cccc(-c4cccc(Br)c4)c3)O2)c(=O)[nH]1 (centres unmarked) | SAMHD1 (Homo sapiens, UniProt Q9Y3Z3, D137N) | inhibitor, malachite green | – | added: XTP activator | relative to: D137N mutant over wild type | IC50 fold increase | 30 fold
O=S([O-])c1ccccc1N=Cc1ccccc1[O-].[Cu+2].c1c[nH]cn1 | ALB | FRET | – | 4 µM | – | donor-acceptor distance | 2.75 nm
CCCNCC(=O)O | ALB | binding, UV-vis absorption titration | – | – | – | midpoint concentration | 781 µM
NCCCC[C@H](NC(=O)[C@H](C/C=C/C[C@H](NC(=O)[C@@H]1CCCN1)C(=O)N[C@@H](CCCCN)C(=O)NCCCN)NC(=O)[C@@H]1CCCN1)C(=O)NCCCN | (CCUG)10 RNA | SPR | – | – | – | residence time | 1 s
CC(C)[C@H](NC(=O)[C@@H]1CCCN1C(=O)[C@H](CCCCN)NC(=O)[C@H](Cc1ccccc1)NC(=O)[C@H](Cc1ccccc1)NC(=O)[C@H](CC(=O)O)NC(=O)[C@H](CCC(=O)O)NC(=O)[C@H](Cc1ccc(O)cc1)NC(=O)[C@H](CC(=O)O)NC(=O)[C@H](CCC(=O)O)NC(=O)[C@H](CC(=O)O)NC(=O)[C@H](CCC(=O)O)NC(=O)[C@@H](N)Cc1ccc(O)cc1)C(=O)N[C@H](C(=O)N[C@@H](CSSC[C@H](NC(=O)[C@@H](NC(=O)[C@@H](NC(=O)[C@@H]1CCCN1C(=O)[C@H](CCCCN)NC(=O)[C@H](Cc1ccccc1)NC(=O)[C@H](Cc1ccccc1)NC(=O)[C@H](CC(=O)O)NC(=O)[C@H](CCC(=O)O)NC(=O)[C@H](Cc1ccc(O)cc1)NC(=O)[C@H](CC(=O)O)NC(=O)[C@H](CCC(=O)O)NC(=O)[C@H](CC(=O)O)NC(=O)[C@H](CCC(=O)O)NC(=O)[C@@H](N)Cc1ccc(O)cc1)C(C)C)[C@@H](C)O)C(=O)N[C@@H](Cc1ccc(O)cc1)C(=O)N[C@@H](Cc1ccccc1)C(N)=O)C(=O)N[C@@H](Cc1ccc(O)cc1)C(=O)N[C@@H](Cc1ccccc1)C(N)=O)[C@@H](C)O | C-C motif chemokine 8 (CCL8, Homo sapiens, UniProt P80075) | isothermal titration calorimetry | – | concentration not given | – | binding enthalpy ΔH | -28.1 ± 1.59 kJ/mol
CC(=O)N[C@H]1[C@@H](OP(=O)(O)OP(=O)(O)OC[C@H]2O[C@@H](n3ccc(=O)[nH]c3=O)[C@H](O)[C@@H]2O)O[C@H](CO)[C@@H](O)[C@@H]1O | ABO G235S/G268A/L266M/R176G | binding, NMR | – | – | – | koff | 610 s⁻¹
CNc1ccccc1C(=O)O[C@H]1C[C@H](n2cnc3c(N)ncnc32)O[C@@H]1COP(=O)(O)OP(=O)(O)O | Unconventional myosin-Va (Gallus gallus, UniProt Q02440, D297C/G292C/I296C/S293C/V295G) | stopped-flow FRET | – | – | relative to: 2 mM MgCl2, higher without Mg | fast phase y-intercept | ~10 fold
OC[C@H]1O[C@@H](n2cnc3c(Nc4cccc(Br)c4)ncnc32)[C@H](O)[C@@H]1O | ADORA3 (Homo sapiens, UniProt P0DMS8) | kinetic radioligand binding | – | no GTP, added: [3H]PSB-11 | – | residence time | 960 ± 36 s
Nc1nc2cc(CC[C@H]3C[C@@H](n4ccc5c(N)ncnc54)[C@H](O)[C@@H]3O)ccc2cc1Br | Protein arginine N-methyltransferase 5, with WDR77 (PRMT5, Homo sapiens, UniProt O14744) | inhibitor, RapidFire MS | – | added: MEP50 | – | k_inact/Ki | 610000 M⁻¹ s⁻¹
CCCCOc1ccc(C(=O)OCC[N+]2(C)CC=CCC2)cc1 (centres unmarked) | CHRM1 | antagonist, item: inositol phosphates | CHO | M1, added: carbachol | – | cooperativity factor | 0.001 ± 0.0002
CCC(=C(c1ccc(O)cc1)c1ccc(OCCN(C)CCOCCOCCOCCOCCN(C)CCOc2ccc(C(=C(CC)c3ccccc3)c3ccc(O)cc3)cc2)cc1)c1ccccc1 (mixture of isomers) | ESR2 | radioligand competition binding | – | concentration not given, Z-E/E isomer form, added: [3H]estradiol tracer | relative to: estradiol | relative binding affinity | 4.77 ± 1.5%
CC1=C(/C=C/C(C)=C/C=C/C(C)=C/C=O)C(C)(C)CCC1 | CNGA1 (Bos taurus, UniProt Q00194) | channel binding, allosteric model fit | – | closed unliganded channel | – | association constant K1 | 9e+10 M^-n
C[C@H](Cn1cnc2c(N)ncnc21)OCP(=O)(O)O | T1, DNA aptamer | interferometric free solution assay | – | 2 h, 22 °C, NaCl 150 mM, single-site fit | – | Kd | 4.88 nM
CC/C(=C(\c1ccc(O)cc1)c1ccc(OCCN(C)CCOCCOCCOCCOCCOCCOCCOCCN(C)CCOc2ccc(/C(=C(/CC)c3ccccc3)c3ccc(O)cc3)cc2)cc1)c1ccccc1 | ESR2 | radioligand competition binding | – | concentration not given, Z-Z/Z isomer form, added: [3H]estradiol tracer | relative to: estradiol | relative binding affinity | 20.7%
Nc1ncc(-c2nc(N3CCOCC3)nc(N3CCN(C(=O)CCC(=O)N4CCN(CCCCCCNc5cccc6c5C(=O)N(C5CCC(=O)NC5=O)C6=O)CC4)CC3)n2)c(C(F)F)n1 (centres unmarked) | PIK3CA (Homo sapiens, UniProt P42336, E545K) | degrader, Western blot | MCF7 | concentration not given, 48 h after washout | – | protein level | not detected
Nc1c2nc(N3CCCCC3)n3c2nc[n+]1[C@@H]1O[C@H](COP(=O)(O)OP(=O)([O-])OC[C@H]2O[C@@H]3[C@H](O)[C@@H]2O)[C@@H](O)[C@H]1O | cADPR receptor, sea urchin | Ca2+ release | sea urchin egg homogenate | concentration not given | – | activity | inactive

SMILES | target | test | system | setting | scale | quantity | result
O=Cc1ccc(-c2cn([C@@H]3O[C@H](COP(=O)(O)OP(=O)(O)O[C@H]4O[C@H](CO)[C@H](O)[C@H](O)[C@H]4O)[C@@H](O)[C@H]3O)c(=O)[nH]c2=O)s1 | ABO (Homo sapiens, UniProt P16442, G268A/L266G) | substrate, HPLC | – | – | relative to: natural donor | kcat/Km | 1%
N[C@@H](Cc1ccc(O)c(I)c1)C(=O)O | Iodotyrosine deiodinase (IYD, Thermotoga neapolitana, UniProt B9K712, M41A) | binding, FMN fluorescence quenching | – | 25 °C | – | Kd ratio, M41A over wild type | 5 fold
CCNS(=O)(=O)c1ccc(COc2ccc3nc4ccc(=O)cc-4oc3c2)cc1 | DDR2 (Homo sapiens, UniProt Q16832) | size exclusion chromatography, item: DDR2 extracellular domain | – | 1 µM, 1 h | – | oligomer fraction | decreased
NC(=O)C1CCNC(=O)C(CCCNC(=O)c2cnccn2)NC(=O)C(CC2CCCCC2)NC(=O)C(CC=Cc2ccccc2)NC(=O)C=CC(=O)N1 (centres unmarked) | MAPKAPK2 (Homo sapiens, UniProt P49137) | DNA-templated library selection | – | one selection round | – | enrichment factor | 2.6
C/C(=N\OCCCN1CCOCC1)c1ccc(C(F)(F)F)cc1 | rat sigma-1 receptor | binding | – | added: phenytoin 250 µM | relative to: without over with phenytoin | Ki ratio | 1.32
Cc1sc2c(c1C)C(c1ccc(Cl)cc1)=N[C@@H](CC(=O)NCCCCCCCCC(=O)N1CCN(C(=O)c3cc(Cc4n[nH]c(=O)c5ccccc45)ccc3F)CC1)c1nnc(C)n1-2 | BRD4/PARP1 (Homo sapiens, UniProt O60885+P09874) | PARP1-BRD4 complex formation | HEK293T | 50 nM | – | time to equilibrium | 40 min
CN(C)CCCOc1ccc2cc(CN)ccc2c1 | Primary amine oxidase, liver isozyme (Bos taurus, UniProt Q29437) | substrate, fluorescence | – | – | relative to: benzylamine | relative kcat/Km | 2700
CCN(CC)C(=O)c1ccc(O)c(OC)c1 | Heat shock protein HSP 90-alpha, N-terminal domain (HSP90AA1, Homo sapiens, UniProt P07900) | binding, ligand-observed NMR titration | – | ligand to protein ratio 56 | – | bound ligand fraction | 0.74 mol %
C[C@H](CCC(=O)N[C@@H](CCC(=O)Nc1ccc(O)cc1)C(=O)O)[C@H]1CC[C@H]2[C@@H]3[C@H](O)C[C@@H]4C[C@H](O)CC[C@]4(C)[C@H]3CC[C@]12C | SLC10A2 | transport, substrate, LC-MS/MS | ASBT-MDCK cells | – | – | Kt | 15.3 µM
CCCCCCCCO[C@@H]1O[C@H](CO)[C@H](O)[C@H](O[C@H]2O[C@H](CO)[C@H](O)[C@H](O)[C@H]2O)[C@H]1O[C@@H]1O[C@@H](C)[C@@H](O)[C@@H](O)[C@@H]1O | ABO G235S/G268A/L266M/R176G | methyl-TROSY NMR titration lineshape analysis | – | apo enzyme | – | kon | 1.1e+07 M⁻¹ s⁻¹
O=C([O-])CN1CCN(CC(=O)[O-])CCN(C(CCC(=O)NCCCCCN(CCCC[C@H](NC(=O)N[C@@H](CCC(=O)O)C(=O)O)C(=O)O)C(=O)c2ccc(I)cc2)C(=O)O)CCN(CC(=O)[O-])CC1.[68Ga+3] (some centres unmarked) | FOLH1 (Homo sapiens, UniProt Q04609) | PET/CT | prostate cancer patients, all lesion types | mean | – | SUVmax | > 10
CN1CCN(c2ccc(-c3ccc4[nH]c(-c5ccc(OCCCC(=O)N6CCN(c7nncc8sccc78)CC6)cc5)nc4c3)cc2)CC1 | T2, pre-miR-21 RNA (Homo sapiens) | RNase L cleavage, competitor, RNase L cleavage assay | – | added: RIBOTAC TGP-21-C1-3 | – | IC50 | 13 µM
CC(OCC1CCCCC1)C(NC(=O)C1CN(C(=O)c2cncs2)CC12CN(C(=O)C1CC1(C)C)C2)C(=O)N1CCOCC1 (centres unmarked) | human cyclin E1 wild type:CDK2-NanoLuc | NanoBRET | HEK293T cell lysate | orthosteric site, added: tracer K-10 0.2 µM | – | tracer displacement | no effect
Cc1ccc(NC(=O)CCC(NC(=O)CCC(C)C2CCC3C4C(O)CC5CC(O)CCC5(C)C4CCC23C)C(=O)O)c(C)n1 (centres unmarked) | SLC10A2 | transport, substrate, LC-MS/MS | ASBT-MDCK cells | – | – | Kt | 92.2 µM
Cc1nc(/N=N/c2cc3c(S(=O)(=O)O)cc([N+](=O)[O-])cc3cc2S(=O)(=O)O)c(COP(=O)(O)O)c(C=O)c1O | Neutrophil elastase (ELANE, Homo sapiens, UniProt P08246) | enzyme activity, inhibitor, chromogenic substrate hydrolysis | – | pH 7.4, 37 °C, 100 mM NaCl, added: substrate S-1384 | – | Hill slope | 1.7 ± 0.2
CCCCCCOc1ccc(C(=O)OCC[N+]2(C)CC=CCC2)cc1 (centres unmarked) | CHRM1 | antagonist, item: inositol phosphates | CHO | M1, added: carbachol | – | cooperativity factor | 0.0011 ± 0.0002

Some of these lines once more:
SMILES | target | test | system | setting | scale | quantity | result
Nc1nc2c(ncn2C2CC(O)C(COP(=O)(O)OCCCNC(=O)c3cccc(-c4cccc(Br)c4)c3)O2)c(=O)[nH]1 (centres unmarked) | SAMHD1 (Homo sapiens, UniProt Q9Y3Z3, D137N) | inhibitor, malachite green | – | added: XTP activator | relative to: D137N mutant over wild type | IC50 fold increase | 30 fold
Cc1sc2c(c1C)C(c1ccc(Cl)cc1)=N[C@@H](CC(=O)NCCCCCCCCC(=O)N1CCN(C(=O)c3cc(Cc4n[nH]c(=O)c5ccccc45)ccc3F)CC1)c1nnc(C)n1-2 | BRD4/PARP1 (Homo sapiens, UniProt O60885+P09874) | PARP1-BRD4 complex formation | HEK293T | 50 nM | – | time to equilibrium | 40 min
